Assay results collected from several papers.
± marks the error that the study gave.

`Cc1ncnc2c1c(C1=CCSCC1)cn2[C@@H]1O[C@H](CO)[C@@H](O)[C@H]1O` has a CC50 of over 64 µM (MRC-5 SV2; cell growth or viability, resazurin; 72 h).
`Cn1c(C(F)(F)F)c(-c2ccccc2)c(=O)n1-c1ccccc1` gave a CC50 of 789 ± 57 µM (MDCK; MTT; 72 h).
For `COc1ccc(Nc2c(C#N)cnc3ccc(Cl)cc23)cc1`, the CC50 was over 100 µM (mouse primary embryonic cardiomyocytes; resazurin; 72 h, no heme).
`CC(C)=CCC[C@H](C)c1ccc(C)cc1` has a CC50 of 138 µg/mL (MDCK; cell growth or viability, MTT; 72 h).
For `Cc1ccccc1-c1nnn(C23CC4CC(CC(C4)C2)C3)n1`, the CC50 was over 300 µg/mL (MDCK; MTT; 72 h).
With `OC[C@H]1[C@@H](O)[C@@H](O)CN1Cc1ccc(Br)cc1` the CC50 was over 200 µM (BJ; MTS; 72 h).
With `COc1cc(CN2CCN(c3ccc(C(F)(F)F)cc3)CC2)c2cc3[n+](cc2c1O)CCc1cc2c(cc1-3)OCO2` the CC50 was 118 µg/mL (MDCK; cell growth or viability, SRB; 48 h).
For `CCC(=O)C[C@@H](O)C[C@@H](C)C[C@H](NC(=O)[C@@H]1C[C@H](C)CN1C(=O)/C=C/[C@@H](C)CC)C(=O)N[C@H](C(=O)NC(C)(C)C(=O)N[C@@H](CC(C)C)C(=O)N[C@@H](CC(C)C)C(=O)NC(C)(C)C(=O)NC(C)(C)C(=O)NCCC(=O)N[C@@H](C)CN(C)C)[C@H](O)C(C)C`, the CC50 was over 1.5 µM (C2C12; cell growth or viability, imaging; 72 h).
`COc1cc(CN2CCN(c3ccccc3Cl)CC2)c2cc3[n+](cc2c1O)CCc1cc2c(cc1-3)OCO2` gave a CC50 of 148 µg/mL (MDCK; cell growth or viability, SRB; 48 h).
`O=C(CCN(CCC(=O)NC(Cc1c[nH]c2ccccc12)C(=O)O)C(=O)C1CC(C(=O)N(CCC(=O)NC(Cc2c[nH]c3ccccc23)C(=O)O)CCC(=O)NC(Cc2c[nH]c3ccccc23)C(=O)O)CC(C(=O)N(CCC(=O)NC(Cc2c[nH]c3ccccc23)C(=O)O)CCC(=O)NC(Cc2c[nH]c3ccccc23)C(=O)O)C1)NC(Cc1c[nH]c2ccccc12)C(=O)O` (stereo not drawn) has a CC50 of over 100 µM (MT4; 5 (unit not given)).
For `COc1cc(CN2CCN(c3ccc([N+](=O)[O-])cc3)CC2)c2cc3[n+](cc2c1O)CCc1cc2c(cc1-3)OCO2`, the CC50 was 141 µg/mL (MDCK; cell growth or viability, SRB; 48 h).
With `COc1ccc(CN2C[C@H](O)[C@H](O)[C@@H]2CO)cc1` the CC50 was over 200 µM (BJ; MTS; 72 h).

A few entries again:
For `CCC(=O)C[C@@H](O)C[C@@H](C)C[C@H](NC(=O)[C@@H]1C[C@H](C)CN1C(=O)/C=C/[C@@H](C)CC)C(=O)N[C@H](C(=O)NC(C)(C)C(=O)N[C@@H](CC(C)C)C(=O)N[C@@H](CC(C)C)C(=O)NC(C)(C)C(=O)NC(C)(C)C(=O)NCCC(=O)N[C@@H](C)CN(C)C)[C@H](O)C(C)C`, the CC50 was over 1.5 µM (C2C12; cell growth or viability, imaging; 72 h).
`O=C(CCN(CCC(=O)NC(Cc1c[nH]c2ccccc12)C(=O)O)C(=O)C1CC(C(=O)N(CCC(=O)NC(Cc2c[nH]c3ccccc23)C(=O)O)CCC(=O)NC(Cc2c[nH]c3ccccc23)C(=O)O)CC(C(=O)N(CCC(=O)NC(Cc2c[nH]c3ccccc23)C(=O)O)CCC(=O)NC(Cc2c[nH]c3ccccc23)C(=O)O)C1)NC(Cc1c[nH]c2ccccc12)C(=O)O` (stereo not drawn) has a CC50 of over 100 µM (MT4; 5 (unit not given)).
